Published values collected from several papers.
Every numbered part comes from another study and shows a few of its results, in no order. Changes are numbered by the printed parent chain.

Block 1 — target: CCNB2, cyclin fold, Cln2 fusion (human); method: yeast growth competition, sequencing; medium: yeast; setting: weak parent motif; reference: not given; direction: higher = stronger binding
Starting sequence: E2F1 docking peptide (human); PPVKRRLDLETDH
Substitution	normalised enrichment score
D8G	0.936
K4E	-0.0472
P2M	-0.248
D12C	0.383
D8Y	-0.21
R6W	0.299
D12A	0.464
E10V	0.18

Block 2 — method: protein-binding microarray; form: double-stranded DNA, one strand shown; medium: in vitro; concentration: 250 nM; setting: 60-bp whole probe; together with: salmon DNA 0.4 mg/ml; reference: random background probes; direction: higher = stronger binding; constant ends, left off below: GCCTAGCAC … GTCTTGATTCGCTTGACGCTGCTG
Target: Interferon regulatory factor 7, full length, phosphomimetic (IRF7, Homo sapiens, UniProt Q92985, residues 1-503, S101K/S471D/S472D/S475D/S476D/S477D/S483D/S484D/S487D)
Residues (chain): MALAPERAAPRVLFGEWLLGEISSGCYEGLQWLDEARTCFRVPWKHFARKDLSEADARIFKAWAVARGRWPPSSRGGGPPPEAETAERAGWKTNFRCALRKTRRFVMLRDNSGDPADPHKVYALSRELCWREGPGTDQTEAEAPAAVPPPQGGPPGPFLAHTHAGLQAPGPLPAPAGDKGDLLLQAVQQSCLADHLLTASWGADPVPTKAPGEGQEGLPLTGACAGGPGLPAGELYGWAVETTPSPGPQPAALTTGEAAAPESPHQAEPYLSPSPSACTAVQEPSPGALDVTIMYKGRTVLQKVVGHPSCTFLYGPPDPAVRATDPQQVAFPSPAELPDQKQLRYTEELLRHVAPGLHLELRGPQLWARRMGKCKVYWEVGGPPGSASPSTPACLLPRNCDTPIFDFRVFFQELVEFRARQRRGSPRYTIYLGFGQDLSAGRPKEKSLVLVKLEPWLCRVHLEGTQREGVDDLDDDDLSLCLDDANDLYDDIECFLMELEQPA
Oligonucleotide	log fluorescence
TTAGGTCTCGGACAGGGTTAGTGCTAG	0.104 z-score
GACGATATCAGTCTCGAGAAGTGCTAG	0.276 z-score
GAGGATCTCAGTCTCGAGACGTGCTAG	0.222 z-score
TTAGGTCTCCTTTTCCTTAAGTGCTAG	2.68 z-score
TACGGTATCCTACTGCTGACGTGCTAG	-0.254 z-score
TCAAGTCTCAACCCCCAAACTGTGCTA	-0.187 z-score
GTGTTTTCATTTTATGACAGCGTGCTA	4.49 z-score
GACGATATCGGATTTCGAGACGTGCTA	0.0857 z-score

Block 3 — method: competition protein-binding microarray; form: double-stranded DNA, one strand shown; medium: in vitro; concentration: 2 µM; together with: Pho4 competitor, 0.05 µM; direction: higher = stronger binding
Target: Centromere-binding protein 1, full length, His-tagged (CBF1, Saccharomyces cerevisiae, UniProt P17106, residues 1-351)
Chain of UniProt P17106 (whole entry, looked up): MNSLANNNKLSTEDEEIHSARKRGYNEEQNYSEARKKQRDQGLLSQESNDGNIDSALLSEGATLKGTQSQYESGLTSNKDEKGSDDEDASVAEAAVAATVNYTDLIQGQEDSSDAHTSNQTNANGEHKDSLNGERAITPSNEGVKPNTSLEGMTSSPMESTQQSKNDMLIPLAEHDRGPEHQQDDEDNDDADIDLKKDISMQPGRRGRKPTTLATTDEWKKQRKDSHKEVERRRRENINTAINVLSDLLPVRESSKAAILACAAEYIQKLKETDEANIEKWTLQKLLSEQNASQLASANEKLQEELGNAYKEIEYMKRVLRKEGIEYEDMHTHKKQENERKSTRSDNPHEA
Setting: whole 60-bp probe, lowest competitor level
Oligonucleotide	fluorescence intensity
CTAACGAAGGTTTGTTTCGTGGGTGACAAGCCAAGTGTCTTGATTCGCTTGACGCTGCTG	64.8 a.u.
CTTCAGTCCTCAAGGGGCGTGCTTTTTGCTCTTGCTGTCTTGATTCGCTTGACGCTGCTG	66.7 a.u.
TTTGTGTGCTACCTGCTCGTGACGGCGGTCTTTTTGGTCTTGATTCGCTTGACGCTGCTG	178 a.u.
AAATTACTAAGTTGTCCTGTGGGTGACGCCGTATGAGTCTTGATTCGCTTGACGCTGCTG	69.6 a.u.
CTTTCCCGATCTTGTATCGTGGGTGTAGCACATTTGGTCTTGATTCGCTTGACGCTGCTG	72.8 a.u.
CTAACGAAGGTTTGTAGGGTGGGTGACAAGCCAAGTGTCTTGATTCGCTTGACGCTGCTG	61 a.u.
TTCCACCGAATTTCCCACCTGATAATATCTGATAACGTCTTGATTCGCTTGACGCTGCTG	107 a.u.

Single results of other studies
Molecule	target	test	test system	setting	scale	endpoint	value
PhoQ, residues 284 288 289 292 302 303 NLALSC	PhoP, residues 12 14 15 18 19 TPWLV (Escherichia coli, UniProt P23836)	Sort-seq, measured: YFP reporter	E. coli	PhoQ-PhoP variant library, together with: 10 µM Mg2+	reference: high Mg2+ state, higher = stronger signaling	fold induction	4.64

Some of these lines once more (block 3):
Oligonucleotide	fluorescence intensity
TTTGTGTGCTACCTGCTCGTGACGGCGGTCTTTTTGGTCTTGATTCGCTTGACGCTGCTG	178 a.u.
CTAACGAAGGTTTGTAGGGTGGGTGACAAGCCAAGTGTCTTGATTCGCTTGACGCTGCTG	61 a.u.
AAATTACTAAGTTGTCCTGTGGGTGACGCCGTATGAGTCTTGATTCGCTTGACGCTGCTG	69.6 a.u.
